Measured values pooled from the literature.
Compare with care: the assays were run in different laboratories. “And” joins repeats or separate records; there may be more than shown. ± gives the spread as reported.
B1: PP methylesterase 1 (human); sequence looked up; chain SALEKSMHLGRLPSRPPLPGSGGSQSGAKMRMGPGRKRDFSPVPWSQYFESMEDVEVENETGKDTFRVYKSGSEGPVLLLLHGGGHSALSWAVFTAAIISRVQCRIVALDLRSHGETKVKNPEDLSAETMAKDVGNVVEAMYGDLPPPIMLIGHSMGGAIAVHTASSNLVPSLLGLCMIDVVEGTAMDALNSMQNFLRGRPKTFKSLENAIEWSVKSGQIRNLESARVSMVGQVKQCEGITSPEGSKSIVEGIIEEEEEDEEGSESISKRKKEDDMETKKDHPYTWRIELAKTEKYWDGWFRGLSNLFLSCPIPKLLLLAGVDRLDKDLTIGQMQGKFQMQVLPQCGHAVHEDAPDKVAEAVATFLIRHRFAEPIGGFQCVFPGC
B2: adiponectin; sequence looked up; chain ETTTQGPGVLLPLPKGACTGWMAGIPGHPGHNGAPGRDGRDGTPGEKGEKGDPGLIGPKGDIGETGVPGAEGPRGFPGIQGRKGEPGEGAYVYRSAFSVGLETYVTIPNMPIRFTKIFYNQQNHYDGSTGKFHCNIPGLYYFAYHITVYMKDVKVSLFKKDKAMLFTYDQYQENNVDQASGSVLLHLEVGDQVWLQVYGEGERNGLYADNDNDSTFTGFLLYHDTN
Sequence of UniProt Q64663 (whole entry, unmodified, looked up): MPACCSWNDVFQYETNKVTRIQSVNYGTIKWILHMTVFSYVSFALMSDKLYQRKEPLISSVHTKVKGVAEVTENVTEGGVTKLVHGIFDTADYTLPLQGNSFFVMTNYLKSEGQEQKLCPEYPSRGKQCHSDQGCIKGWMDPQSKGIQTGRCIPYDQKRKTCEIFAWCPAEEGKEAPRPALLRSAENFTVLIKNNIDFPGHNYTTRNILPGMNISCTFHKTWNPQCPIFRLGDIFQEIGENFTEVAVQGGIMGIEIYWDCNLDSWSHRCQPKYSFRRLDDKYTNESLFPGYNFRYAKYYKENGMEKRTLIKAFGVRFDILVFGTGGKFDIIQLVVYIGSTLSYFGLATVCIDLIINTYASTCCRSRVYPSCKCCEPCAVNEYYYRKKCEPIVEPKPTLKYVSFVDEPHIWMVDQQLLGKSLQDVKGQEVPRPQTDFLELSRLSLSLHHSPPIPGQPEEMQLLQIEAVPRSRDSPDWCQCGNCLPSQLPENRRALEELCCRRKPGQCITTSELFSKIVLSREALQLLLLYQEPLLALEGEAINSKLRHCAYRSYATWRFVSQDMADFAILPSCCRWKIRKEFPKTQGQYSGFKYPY

Substance	target or system	test	test system	setting	how to read	measurement	result
epoetin alfa	UT7/EPO	microarray, measured: PMP22 mRNA (probe set 243050_at)		5 U/mL, 90 min	relative to: vehicle	mRNA level	2.8 fold
ENDPIGLEW	Jurkat expressing engineered TCR	NFAT-eGFP reporter, fluorescence microscopy	peptide	concentration not given, HLA-A*01:01 on EL4 cells		GFP-positive cells	0.607%
FNA / CGLSGLGVA-NH2 ([18F]FNA-labelled, C-amide)		ex vivo gamma counting	peptide, glioblastoma mouse model, kidney	60 min post injection, added: 500-fold excess CooP blocking		tissue uptake	4.23 %ID/g
human alpha-enolase	CYB5R4 knockout human cells	PP4 interaction, 3xFLAG-PP4C IP-MS		concentration not given	relative to: CYB5R4 KO over parental	log2 fold change	0.79
Peginesatide	UT7/EPO	LC-MS/MS phosphoproteomics (GluC), measured: p38beta (MAPK11) phospho-Tyr182		10 nM, 15 min	relative to: vehicle	phosphorylation	3.1 fold
Teicoplanin				2-6 °C		stock solution stability time	≤ 24 months
Ac-LRKLRKRLLRDWLKAFYDKVAEKLKEAF-NH2 (N-acetyl, C-amide)	HUVEC	monocyte adhesion	peptide	50 µg, added: LPS		inhibition	75%
B1 (PP methylesterase 1)	CYB5R4 knockout human cells	PP4 interaction, 3xFLAG-PP4C IP-MS		concentration not given	relative to: CYB5R4 KO over parental	log2 fold change	-0.0171
caspofungin			adult ICU patients, mITT, serum	dose not given, Follow-up		aspartate aminotransferase	20.8 U/L
proteasome subunit alpha-2 (human)	CYB5R4 knockout human cells	PP4 interaction, 3xFLAG-PP4C IP-MS		concentration not given	relative to: CYB5R4 KO over parental	log2 fold change	0.64
B2 (adiponectin)	HUVEC	real-time PCR, measured: ICAM-1		15 µg/mL, 24 h, unit not given, added: TNF-α and IFN-γ	relative to: stimulated untreated	mRNA level	0.91 ± 0.28
11-deoxycorticosterone	CYP11B2 (human)	substrate binding, stopped-flow global kinetic fitting	purified enzyme	3-state induced fit model, added: 40-fold excess adrenodoxin		rate constant k-1	36.7 ± 2.13 s⁻¹
MTVCNASQRQAHAQATAVSL	H157 lung squamous carcinoma	phage binding output/input	peptide		relative to: control phage	selectivity ratio	3.2 ± 2.7
MTDPIGQDF	Jurkat expressing engineered TCR	NFAT-eGFP reporter, fluorescence microscopy	peptide	concentration not given, HLA-A*01:01 on EL4 cells		GFP-positive cells	0.669%
colistin	Salmonella enterica Infantis	broth microdilution	clinical isolate RKI 277/14			MIC	≤ 0.5 µg/mL
FGA (Homo sapiens, UniProt P02671)	CASP10 (Homo sapiens, UniProt Q92851)	cross-linking MS		added: DSSO		cross-linked residues	K440 to K479
QSDPITSSM	Jurkat expressing engineered TCR	NFAT-eGFP reporter, fluorescence microscopy	peptide	concentration not given, HLA-A*01:01 on EL4 cells		GFP-positive cells	0.602%
BzATP	P2X purinoceptor 7 (P2rx7, Rattus norvegicus, UniProt Q64663, I214A/Q143A)	ion current, agonist, two-electrode voltage clamp	Xenopus oocytes	3.7 µM		normalized current	0 and 0.01
human desmoplakin	CYB5R4 knockout human cells	PP4 interaction, 3xFLAG-PP4C IP-MS		concentration not given	relative to: CYB5R4 KO over parental	log2 fold change	0.72
ESDPISSPY	Jurkat expressing engineered TCR	NFAT-eGFP reporter, fluorescence microscopy	peptide	concentration not given, HLA-A*01:01 on EL4 cells		GFP-positive cells	2.89%
human SETD2	CYB5R4 knockout human cells	PP4 interaction, 3xFLAG-PP4C IP-MS		concentration not given	relative to: CYB5R4 KO over parental	log2 fold change	0.51
HIDPIGYNY	Jurkat expressing engineered TCR	NFAT-eGFP reporter, fluorescence microscopy	peptide	concentration not given, HLA-A*01:01 on EL4 cells		GFP-positive cells	0.89%

Some of these lines once more:
Substance	target or system	test	test system	setting	how to read	measurement	result
human SETD2	CYB5R4 knockout human cells	PP4 interaction, 3xFLAG-PP4C IP-MS		concentration not given	relative to: CYB5R4 KO over parental	log2 fold change	0.51
HIDPIGYNY	Jurkat expressing engineered TCR	NFAT-eGFP reporter, fluorescence microscopy	peptide	concentration not given, HLA-A*01:01 on EL4 cells		GFP-positive cells	0.89%
